# Published values of several laboratories.
# Lines come from different studies, so protocols differ. ± gives the spread as reported.
# Spike glycoprotein: Spike glycoprotein (Severe acute respiratory syndrome coronavirus 2, UniProt P0DTC2)
# rep main protease: Replicase polyprotein 1ab, main protease (rep, Severe acute respiratory syndrome coronavirus 2, UniProt P0DTD1)
# Sequence of UniProt P01556 (whole entry, looked up): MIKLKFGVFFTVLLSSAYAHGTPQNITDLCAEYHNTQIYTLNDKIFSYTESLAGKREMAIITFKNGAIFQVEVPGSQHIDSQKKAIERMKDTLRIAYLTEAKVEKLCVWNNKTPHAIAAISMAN
# Sequence of UniProt Q7BQ98 (whole entry, looked up): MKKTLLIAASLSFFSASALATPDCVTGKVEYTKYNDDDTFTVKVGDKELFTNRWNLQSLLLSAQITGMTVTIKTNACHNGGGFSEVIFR
# Sequence of UniProt Q5XXP4 (whole entry, looked up): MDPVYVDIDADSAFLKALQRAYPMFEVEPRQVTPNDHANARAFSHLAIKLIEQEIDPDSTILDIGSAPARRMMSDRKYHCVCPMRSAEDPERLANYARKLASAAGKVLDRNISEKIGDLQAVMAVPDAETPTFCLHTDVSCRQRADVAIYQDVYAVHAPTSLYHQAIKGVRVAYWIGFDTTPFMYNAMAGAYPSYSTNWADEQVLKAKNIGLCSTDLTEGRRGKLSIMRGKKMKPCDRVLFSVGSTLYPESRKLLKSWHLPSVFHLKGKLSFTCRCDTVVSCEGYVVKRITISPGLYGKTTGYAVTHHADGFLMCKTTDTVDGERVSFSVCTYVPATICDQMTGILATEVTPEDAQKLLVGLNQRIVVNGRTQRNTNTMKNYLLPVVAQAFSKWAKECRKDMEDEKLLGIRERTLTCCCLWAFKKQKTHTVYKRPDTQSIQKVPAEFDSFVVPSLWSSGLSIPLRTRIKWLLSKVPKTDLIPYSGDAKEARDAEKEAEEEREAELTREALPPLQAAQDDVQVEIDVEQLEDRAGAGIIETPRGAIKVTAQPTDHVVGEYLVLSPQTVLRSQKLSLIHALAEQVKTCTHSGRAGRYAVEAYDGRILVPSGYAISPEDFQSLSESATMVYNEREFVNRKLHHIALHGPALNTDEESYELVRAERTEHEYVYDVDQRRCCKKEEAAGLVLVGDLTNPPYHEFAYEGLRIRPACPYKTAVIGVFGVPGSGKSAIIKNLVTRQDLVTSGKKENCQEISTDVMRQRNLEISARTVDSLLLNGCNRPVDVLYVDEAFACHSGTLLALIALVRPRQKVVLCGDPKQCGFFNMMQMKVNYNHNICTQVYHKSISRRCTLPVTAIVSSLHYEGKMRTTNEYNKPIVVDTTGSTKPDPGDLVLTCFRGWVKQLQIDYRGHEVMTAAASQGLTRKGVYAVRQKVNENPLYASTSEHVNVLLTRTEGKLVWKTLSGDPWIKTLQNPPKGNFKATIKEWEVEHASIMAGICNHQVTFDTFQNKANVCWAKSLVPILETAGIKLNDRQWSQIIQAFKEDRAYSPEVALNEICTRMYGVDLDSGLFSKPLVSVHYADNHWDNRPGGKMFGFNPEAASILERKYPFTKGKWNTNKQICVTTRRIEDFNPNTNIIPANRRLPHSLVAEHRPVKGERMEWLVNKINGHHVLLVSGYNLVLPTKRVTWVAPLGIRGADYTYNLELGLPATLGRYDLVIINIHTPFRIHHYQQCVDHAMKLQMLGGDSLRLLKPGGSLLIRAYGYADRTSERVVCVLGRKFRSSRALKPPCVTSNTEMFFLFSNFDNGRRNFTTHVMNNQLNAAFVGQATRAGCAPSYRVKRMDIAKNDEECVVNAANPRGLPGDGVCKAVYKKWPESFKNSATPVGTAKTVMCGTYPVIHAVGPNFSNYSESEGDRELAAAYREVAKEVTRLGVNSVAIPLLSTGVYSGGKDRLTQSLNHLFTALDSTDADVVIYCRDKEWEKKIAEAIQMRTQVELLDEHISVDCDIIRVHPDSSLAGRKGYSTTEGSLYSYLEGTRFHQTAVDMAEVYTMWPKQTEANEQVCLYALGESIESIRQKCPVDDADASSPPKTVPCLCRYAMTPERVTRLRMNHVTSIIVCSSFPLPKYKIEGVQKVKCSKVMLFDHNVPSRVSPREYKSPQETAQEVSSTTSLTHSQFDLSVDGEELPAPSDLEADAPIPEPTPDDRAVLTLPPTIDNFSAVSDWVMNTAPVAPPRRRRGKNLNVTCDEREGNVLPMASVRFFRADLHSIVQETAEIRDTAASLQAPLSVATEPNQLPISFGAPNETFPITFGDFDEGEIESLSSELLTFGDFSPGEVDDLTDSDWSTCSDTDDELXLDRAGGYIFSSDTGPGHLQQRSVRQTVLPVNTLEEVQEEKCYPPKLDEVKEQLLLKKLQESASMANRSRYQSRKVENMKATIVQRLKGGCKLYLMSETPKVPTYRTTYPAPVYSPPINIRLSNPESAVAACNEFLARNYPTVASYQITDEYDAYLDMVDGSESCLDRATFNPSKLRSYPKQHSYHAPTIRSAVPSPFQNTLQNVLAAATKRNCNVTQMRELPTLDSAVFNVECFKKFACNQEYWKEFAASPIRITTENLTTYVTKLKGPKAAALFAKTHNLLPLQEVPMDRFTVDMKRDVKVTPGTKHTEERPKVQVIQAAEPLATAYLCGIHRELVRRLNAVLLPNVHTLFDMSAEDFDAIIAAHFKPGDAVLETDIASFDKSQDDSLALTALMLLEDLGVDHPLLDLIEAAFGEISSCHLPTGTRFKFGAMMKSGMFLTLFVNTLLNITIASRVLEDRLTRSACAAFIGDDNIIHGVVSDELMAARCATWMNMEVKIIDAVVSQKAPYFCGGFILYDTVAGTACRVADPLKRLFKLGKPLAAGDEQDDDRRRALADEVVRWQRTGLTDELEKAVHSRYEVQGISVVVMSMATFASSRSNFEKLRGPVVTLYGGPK
Structure (SMILES),tested on,assay,system,conditions,how to read,quantity,result
O=C(O[C@@H]1Cc2c(O)cc(O)cc2O[C@@H]1c1cc(O)c(O)c(O)c1)c1cc(O)c(O)c(O)c1,Spike glycoprotein,binding,,,,koff,0.00244 s⁻¹
CC[C@H](C)[C@H](NC(=O)[C@H](CC(C)C)NC(=O)[C@H](Cc1c[nH]c2ccccc12)NC(=O)[C@H](CCC(N)=O)NC(=O)[C@@H](NC(=O)[C@H](Cc1ccccc1)NC(=O)[C@H](C)NC(=O)[C@H](CCCCNC(=O)COCCOCCNC(=O)COCCOCCNC(=O)CC[C@H](NC(=O)CCCCCCCCCCCCCCCCCCC(=O)O)C(=O)O)NC(=O)[C@H](CCC(N)=O)NC(=O)[C@H](C)NC(=O)[C@@H](NC(=O)[C@H](CCCCN)NC(=O)[C@H](CC(=O)O)NC(=O)[C@H](CC(C)C)NC(=O)C(C)(C)NC(=O)[C@@H](NC(=O)[C@H](CO)NC(=O)[C@H](Cc1ccc(O)cc1)NC(=O)[C@H](CC(=O)O)NC(=O)[C@H](CO)NC(=O)[C@@H](NC(=O)[C@H](Cc1ccccc1)NC(=O)[C@@H](NC(=O)CNC(=O)[C@H](CCC(=O)O)NC(=O)C(C)(C)NC(=O)[C@@H](N)Cc1ccc(O)cc1)[C@@H](C)O)[C@@H](C)O)[C@@H](C)CC)[C@@H](C)CC)C(C)C)C(=O)N[C@@H](C)C(=O)NCC(=O)NCC(=O)N1CCC[C@H]1C(=O)N[C@@H](CO)C(=O)N[C@@H](CO)C(=O)NCC(=O)N[C@@H](C)C(=O)N1CCC[C@H]1C(=O)N1CCC[C@H]1C(=O)N1CCC[C@H]1C(=O)N[C@@H](CO)C(N)=O,,,"healthy subjects, single ascending dose","8.0 mg, day 29",,serum lipase,50.1 ± 23.9 U/L
Cc1cc(C(=O)N2[C@@H]3CCC[C@H]2CC(NC(=O)c2cc[nH]c(=O)c2)C3)cc(=O)[nH]1 (stereo partly drawn),rep main protease,"enzyme activity, inhibitor",,"5 µM, run 1",,inhibition,12.8%
CN1C(=N)N[C@](C)(c2cc(NC(=O)c3ccc(F)cn3)ccc2F)CS1(=O)=O,rep main protease,"reporter gene (Gaussia luciferase), inhibitor",,20 µM,,inhibition,-0.782%
O=C(NCCOc1cc(OCCNC(=O)OCc2cn([C@@H]3O[C@H](CO)[C@H](O[C@H]4O[C@H](CO)[C@H](O)[C@H](O)[C@H]4O)[C@H](O)[C@H]3O)nn2)cc(C(=O)O)c1)OCc1cn([C@@H]2O[C@H](CO)[C@H](O[C@H]3O[C@H](CO)[C@H](O)[C@H](O)[C@H]3O)[C@H](O)[C@H]2O)nn1,"Shiga toxin subunit B (stxB, Shigella dysenteriae, UniProt Q7BQ98)",,Escherichia coli,,,log IC50,-2.9
Cc1cnc(F)c(C(=O)NC[C@@H]2c3ccccc3CCN2C(=O)c2cccc3[nH]ccc23)c1,rep main protease,"enzyme activity, inhibitor",,"5 µM, run 2",,inhibition,9%
CNC(=O)[C@@H](NC(=O)[C@H](CC(C)C)[C@H](O)C(=O)NO)C(C)(C)C,C2C12,,,"10 µM, together with: AP venom",relative to: venom alone,viability difference,55.4%
CCOC(=O)CCN(C(=O)c1ccc2c(c1)nc(CNc1ccc(C(=N)N)cc1)n2C)c1ccccn1.Cl,rep main protease,"reporter gene (mKate2), inhibitor",,20 µM,,inhibition,-0.136%
Cn1cnc(Cn2c(=O)[nH]/c(=N\c3cc4cn(C)nc4cc3Cl)n(Cc3cc(F)c(F)cc3F)c2=O)n1,,,"human, moderate renal impairment","oral, 375 mg",,"dry mouth TEAE, Mild severity",0%
O=C1O[C@H]2[C@@H]3OC(=O)c4cc(O)c(O)c(O)c4-c4c(cc(O)c(O)c4O)C(=O)OC[C@H]2O[C@@H](OC(=O)c2cc(O)c(O)c(O)c2)[C@@H]3OC(=O)c2cc(O)c(O)c3c2[C@@H]2C1=CC(=O)[C@](O)(O3)C2(O)O,Spike glycoprotein,"binding, BLI",,,,kon,165 M⁻¹ s⁻¹
O=C(/C=C\c1cnc[nH]c1=O)NC[C@H](NC(=O)C1=NNC(=O)CC1)c1ccc2ccccc2c1,rep main protease,"enzyme activity, inhibitor",,5 µM,,inhibition,16%
Nc1ncnc2c([C@@H]3N[C@H](CO)[C@@H](O)[C@H]3O)c[nH]c12,Marburg marburgvirus,viral RNA in supernatant,"HeLa, Musoke","0.8 µM, 1 h",,inhibition,5.6%
O=C[C@H](O)[C@@H](O)[C@@H](O)[C@H](O)CO,"ctxB (Vibrio cholerae, UniProt P01556)",binding,,,,Hill slope,-1.35
CS(=O)(=O)C=CCNC(=O)c1ccc2c(c1)NC(=O)CC2,"Polyprotein P1234, nsP2 protease domain (Chikungunya virus, UniProt Q5XXP4)",time-dependent inhibitor,,,,kinact/KI,160 ± 20 M⁻¹ s⁻¹
CC(C)[C@H](NC(=O)c1ccc2ccccc2n1)C(=O)N[C@@H](CC(=O)O)C(=O)COc1c(F)cccc1F,rep main protease,"reporter gene (Gaussia luciferase), inhibitor",,20 µM,,inhibition,1.14%
O=C(c1ccc2cccnc2c1)N1CC[C@@H]([C@@H]2CCCN(C(=O)c3cccn4cnnc34)C2)C1,rep main protease,"enzyme activity, inhibitor",,"5 µM, run 1",,inhibition,12.1%
CC(C)CC(=O)N[C@H](C(=O)N[C@H](C(=O)N[C@@H](CC(C)C)[C@@H](O)CC(=O)N[C@@H](C)C(=O)N[C@@H](CC(C)C)[C@@H](O)CC(=O)O)C(C)C)C(C)C,rep main protease,"reporter gene (Gaussia luciferase), inhibitor",,20 µM,,inhibition,0.381%
C[C@@H]1[C@H](O)[C@@H](C)/C=C/C=C/CC/C=C/C=C/C=C/C=C/C(O[C@H]2O[C@H](C)[C@@H](O)[C@H](N)[C@@H]2O)CC2O[C@](O)(CC(O)C(O)CCC(O)CC(O)CC(O)CC(=O)O[C@H]1C)CC(O)C2C(=O)O (stereo partly drawn),Spike glycoprotein,"binding, biolayer interferometry",,,,kon,241 M⁻¹ s⁻¹

# Excerpt of the above:
Structure (SMILES),tested on,assay,system,conditions,how to read,quantity,result
CCOC(=O)CCN(C(=O)c1ccc2c(c1)nc(CNc1ccc(C(=N)N)cc1)n2C)c1ccccn1.Cl,rep main protease,"reporter gene (mKate2), inhibitor",,20 µM,,inhibition,-0.136%
O=C1O[C@H]2[C@@H]3OC(=O)c4cc(O)c(O)c(O)c4-c4c(cc(O)c(O)c4O)C(=O)OC[C@H]2O[C@@H](OC(=O)c2cc(O)c(O)c(O)c2)[C@@H]3OC(=O)c2cc(O)c(O)c3c2[C@@H]2C1=CC(=O)[C@](O)(O3)C2(O)O,Spike glycoprotein,"binding, BLI",,,,kon,165 M⁻¹ s⁻¹
CN1C(=N)N[C@](C)(c2cc(NC(=O)c3ccc(F)cn3)ccc2F)CS1(=O)=O,rep main protease,"reporter gene (Gaussia luciferase), inhibitor",,20 µM,,inhibition,-0.782%
